Experimental data collected from several papers.
Protocols differ between the studies behind these lines. Numbers after ± are the reported error. ≈ marks a conversion by molar mass, not a printed value.

With COc1cc(CNC(=O)C[C@H](C)CCC=C(C)C)ccc1OCc1cn(-c2ccc(Cl)cc2Cl)nn1 the growth percent was 49.7% (OVCAR-4 ovarian cancer cells; SRB; 10 µM, 48 h).
CC(C)(O)c1ccc(N2Cc3c(ccnc3-c3ccc(F)cc3OCC(F)(F)F)C2=O)cc1 has a glucosylceramide level of 58 ± 2% (Gaucher disease mouse model, brain; 10 mg/kg, 2 months once daily; baseline: vehicle).
COc1cc(CNC(=O)C[C@H](C)CCC=C(C)C)ccc1OCc1cn(-c2cccc(C(F)(F)F)c2)nn1 has a growth percent of 28.1% (OVCAR-8 ovarian cancer cells; SRB; 10 µM, 48 h).
Under “protein level increase”, Cc1nc(C)c(C=[N+]([O-])C(C)(C)C)nc1C is recorded as 11.3% (Western blot, item: HO-1; mouse, MPTP model, substantia nigra cytosol; 10 mg/kg).
With CCc1c(C)[nH]c(C=NC23CC4CC(CC(C4)C2)C3)c1C the parasitaemia suppression was 24% (Plasmodium yoelii; Kenya strain MRA-428, mice; oral, 5 mg/kg daily for 4 days, day 5).
Under “inhibition zone diameter”, CC(=O)[O-].O.O.O.O.[Co+2].[O-]c1ccc(Br)cc1C=NCCN1CCOCC1 is recorded as 17 mm (Shigella flexneri; 20 µL of 100 µM per disc).
Fc1ccc2c(c1)c1nc3ccc(Br)cc3c-1cn2Cc1cn(-c2ccccc2I)nn1 has a fold change of -26 (Giardia duodenalis trophozoites; UHPLC-Q-TOF-MS, item: PI(13:0/12:0); IC50, 0.2033 h; baseline: 0.25% DMSO).
With CCCCC/C=C/C(=O)CCc1ccc(O)c(OC)c1 the IC50 was 136 ng/mL (≈ 0.492 µM) (mouse mAb 1-G12; antibody binding, indirect competitive ELISA; with: coating antigen 4-OVA).
COc1cc(CNC(=O)C[C@H](C)CCC=C(C)C)ccc1OCc1cn(-c2ccccc2[N+](=O)[O-])nn1 has a growth percent of 106% (HCC 2998; SRB; 10 µM, 48 h).
CCN(CC)CC(=O)Nc1cccc(-n2cc(-c3ccc4ccc(-c5cn(-c6cccc(NC(=O)CN(CC)CC)c6)nn5)cc4c3)nn2)c1: “GLUT-1 protein level” “decreased” (GLUT-1; Western blot; nude mouse, tumour xenograft; ip, 15 mg/kg, within 6 h).
For COC1=CC(c2ccc[nH]2)=NC1=Cc1[nH]c(Cc2ccc(Cl)cc2)cc1Cc1ccc(Cl)cc1, the ED50 was 2.8 mg/kg/day (Plasmodium yoelii; Kenya strain MRA-428, mice; oral, day 5, dosed 4 days).
COc1cc(CCC(C)=O)ccc1O has an IC50 of 114 ng/mL (≈ 0.587 µM) (mouse mAb 1-G12; antibody binding, indirect competitive ELISA; with: coating antigen 5-OVA).
For COc1cc(CNC(=O)C[C@H](C)CCC=C(C)C)ccc1OCc1cn(-c2cccc(Cl)c2)nn1, the growth percent was 43.4% (MDA-MB-468 breast cancer cells; SRB; 10 µM, 48 h).
For CC(=O)N[C@@H](CC(N)=O)C(=O)NCC(=O)N[C@@H](CCCNC(=N)N)C(=O)N[C@@H](C)C(N)=O, “rate constant succinimide to β-Asp” read 1.06 h⁻¹ (1H NMR; sodium phosphate buffer 50 mM; pH 7.4, 46 °C).
With COc1cc(CNC(=O)C[C@H](C)CCC=C(C)C)ccc1OCc1cn(-c2ccccc2Cl)nn1 the growth percent was 48.5% (SR leukaemia cells; SRB; 10 µM, 48 h).
Nc1ncnc2c1ncn2[C@H]1C[C@H](O)[C@@H](COP(=O)(O)OP(=O)(O)[C@@H](F)P(=O)(O)O)O1 — result for “delta effective pKa4”: 0 pK units (truncated human DNA polymerase lambda; dNTP incorporation, single-turnover kinetics; B sequence, A·T pair; baseline: non-enzymatic LFER line).

For quick reference, copied from above:
CC(C)(O)c1ccc(N2Cc3c(ccnc3-c3ccc(F)cc3OCC(F)(F)F)C2=O)cc1 has a glucosylceramide level of 58 ± 2% (Gaucher disease mouse model, brain; 10 mg/kg, 2 months once daily; baseline: vehicle).
COc1cc(CNC(=O)C[C@H](C)CCC=C(C)C)ccc1OCc1cn(-c2cccc(C(F)(F)F)c2)nn1 has a growth percent of 28.1% (OVCAR-8 ovarian cancer cells; SRB; 10 µM, 48 h).
